Results collected from several papers.
Compare with care: the assays were run in different laboratories. Numbers after ± are the reported error.
Method: steady-state kinetics
B1: protein (Planktothrix agardhii, UniProt F5B6Z0); chain MIVNVIQKDRLKEQKLQFIRNHQQAFDVEPIYPLPLFEDFVTSIEGDCSLEASCKIESDKLIASRFLLFFEDKTQEWQKYLHQSLTFFGLVENRVGVKINYSLLQQFLGSSFDFSKVTVLSAGIDLRNNLAESSLKMHIRIKDYPEKLDKAFALSDGAADGNYLKDFVNLIGFDFYFNGKSEIEIYAEVQEDDFFKPEINNLVWQHFPKTALQPLKASSLFFTGLSKANNNPVLYYHLKNRQDLTNYFKLNDTAQRVHSFYQHQDILPYMWVGTAQKELEKTRIENIRLYYYKSFKMESN
B2: protein (UniProt A0A4Y6I1F8); chain MGSEVVSKKHEFGALEVEGIDFRASVAALGSTKKLVLGGAGFRGLEINGNLVKFTAIGIYVEEAIIPHLSPKLGGKTVEELCANELLFEEVLSAPFDKLIRVVFLLPLTGPQYSEKVVERIGLLPNPGLKEESIKQFLEIFKAENFPPRTSLVCSFTEDGLKIAFMKGPDFPEESDAVIEDKYFARAFLATIIAKDGVSPMAKLSFAERVSKYL
B3: moaA (Staphylococcus aureus, UniProt P69848); chain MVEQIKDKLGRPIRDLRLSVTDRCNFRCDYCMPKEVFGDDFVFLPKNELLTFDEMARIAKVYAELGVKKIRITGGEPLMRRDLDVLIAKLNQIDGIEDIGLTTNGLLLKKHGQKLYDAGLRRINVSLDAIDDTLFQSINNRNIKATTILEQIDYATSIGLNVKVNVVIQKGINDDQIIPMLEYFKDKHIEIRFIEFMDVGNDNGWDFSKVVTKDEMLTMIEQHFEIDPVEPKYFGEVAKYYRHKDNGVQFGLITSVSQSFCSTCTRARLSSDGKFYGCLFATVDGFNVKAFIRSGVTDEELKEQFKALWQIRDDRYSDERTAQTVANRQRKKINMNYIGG
B4: sacB Y196F/Y247F (Priestia megaterium, UniProt D5DC07); chain KGNDSKDFNNSYGISHITRDNMVKIPQQQNSDQFKVPAFDESTIKNIASAKGKNASGNTIDLDVWDSWPLQNADGTVATYHGYQIVFALAGDPKDSNDTSVYLFYKKAGDKSIDSWKNAGRVFKDSDKFVPNDPHLKNQTQEWSGSGTLTKDGKVRLFYTDYSGKQFGKQTLTTAQVNMSQPNDNTLKVDGVEDYKSIFDGDGKIYQTVQQFIDEGGFDTGDNHTLRDPHYIEDNGHKYLVFEANTGTEDGYQGEDSLYNRAYYGGNNPFFQSEKKKLLEGSNKEKASLANGALGIIELNDDYTLKKVMKPLITSNTVTDEIERANIFKKDGKWYLFTDSRGSKMTIDGIGQDDVYMLGYVSNTLTGKYKPLNDTGLVLHMDLDPNDKTFTYSHFAVPQTKGDNVVITSYMTNRGFYEDNHSTFAPSFLVNIDGSKTSVVKDRVLEQGQLTVDED
B5: enzyme A178R/D177A/M179S/P184R (Levilactobacillus brevis, UniProt Q03Q85); chain MKVTVVGCTHAGTFAIKQILAEHPDAEVTVYERNDVISFLSCGIALYLGGKVADPQGLFYSSPEELQKLGANVQMNHNVLAIDPDQKTVTVEDLTNHAQTTESYDKLVMTSGSWPIVPKIPGIDSDRVKLCKNWAHAQALIEDAKEAKRITVIGAGYIGAELAEAYSTTGHDVTLIARSARVMRKYFDADFTDVIEQDYRDHGVQLALGETVESFTDSATGLTIKTDKNSYETDLAILCIGFRPNTDLLKGKVDMAPNGAIITDDYMRSSNPDIFAAGDSAAVHYNPTHQNAYIPLATNAVRQGILVGKNLVKPTVKYMGTQSSSGLALYDRTIVSTGLTLAAAKQQGLNAEQVIVEDNYRPEFMPSTEPVLMSLVFDPDTHRILGGALMSKYDVSQSANTLSVCIQNENTIDDLAMVDMLFQPNFDRPFNYLNILAQAAQAKVAQSVNA
B6: TcC (Trypanosoma cruzi, UniProt Q4DGA3); chain MPREYEFAEKILFTEEEIRTRIMEVAKRIADDYKGKGLRPYVNPLVLISVLKGSFMFTADLCRALSDFNVPVRMEFICVSSYGEGVTSSGQVRMLLDTRHSIEGHHVLIVEDIVDTALTLNYLYHMYFTRRPASLKTVVLLDKREGRRVPFSADYVVANIPNAFVIGYGLDYDDTYRELRDIVVLRPEVYAEREAARQKKQRAIGSADTDRDAKREFHSKY
B7: FNO G29L (Thermobifida fusca, UniProt Q47RA9); chain MIMIMASKSSPHDLPDVSGLSIAVLGGTLDQGRGLARRFAMAGHEVILGSRSAERAQAVAAELGEGLPVRGMDNAGAAEAGDVVIVAVPWDGHRALLESLKDVLAGKIVVDCVNPLGFDKRGAYALPVEEGSAAEQAAAILPDSRVVAAFHHVSAVLLLDPEVEKVDLDVLVLGDDREATDVVRALAARIPGVRGVYGGRLRNAHQVEAFTANLISINRRYKAHAGIRITDI
B8: protein (Streptomyces coelicolor, UniProt P16544); chain MATQDSEVALVTGATSGIGLEIARRLGKEGLRVFVCARGEEGLRTTLKELREAGVEADGRTCDVRSVPEIEALVAAVVERYGPVDVLVNNAGRPGGGATAELADELWLDVVETNLTGVFRVTKQVLKAGGMLERGTGRIVNIASTGGKQGVVHAAPYSASKHGVVGFTKALGLELARTGITVNAVCPGFVETPMAASVREHYSDIWEVSTEEAFDRITARVPIGRYVQPSEVAEMVAYLIGPGAAAVTAQALNVCGGLGNY
B9: enzyme (Acinetobacter baumannii, UniProt D0CBC8); chain MALVLDGRALAKQIEENLLVRVEALKAKTGRTPILATILVGDDGASATYVRMKGNACRRVGMDSLKIELPQETTTEQLLAEIEKLNANPDVHGILLQHPVPAQIDERACFDAISLAKDVDGVTCLGFGRMAMGEAAYGSATPAGIMTILKENNIEIAGKHAVVVGRSAILGKPMAMMLLQANATVTICHSRTQNLPELVKQADIIVGAVGKAELIQKDWIKQGAVVVDAGFHPRDGGGVGDIQLQGIEEIASAYTPVPGGVGPMTITTLIRQTVEAAEKALG
B10: CODH (Afipia carboxidovorans, UniProt P19920); chain MIPGSFDYHRPKSIADAVALLTKLGEDARPLAGGHSLIPIMKTRLATPEHLVDLRDIGDLVGIREEGTDVVIGAMTTQHALIGSDFLAAKLPIIRETSLLIADPQIRYMGTIGGNAANGDPGNDMPALMQCLGAAYELTGPEGARIVAARDYYQGAYFTAIEPGELLTAIRIPVPPTGHGYAYEKLKRKIGDYATAAAAVVLTMSGGKCVTASIGLTNVANTPLWAEEAGKVLVGTALDKPALDKAVALAEAITAPASDGRGPAEYRTKMAGVMLRRAVERAKARAKN
Chain of UniProt Q9LTH3 (whole entry, looked up): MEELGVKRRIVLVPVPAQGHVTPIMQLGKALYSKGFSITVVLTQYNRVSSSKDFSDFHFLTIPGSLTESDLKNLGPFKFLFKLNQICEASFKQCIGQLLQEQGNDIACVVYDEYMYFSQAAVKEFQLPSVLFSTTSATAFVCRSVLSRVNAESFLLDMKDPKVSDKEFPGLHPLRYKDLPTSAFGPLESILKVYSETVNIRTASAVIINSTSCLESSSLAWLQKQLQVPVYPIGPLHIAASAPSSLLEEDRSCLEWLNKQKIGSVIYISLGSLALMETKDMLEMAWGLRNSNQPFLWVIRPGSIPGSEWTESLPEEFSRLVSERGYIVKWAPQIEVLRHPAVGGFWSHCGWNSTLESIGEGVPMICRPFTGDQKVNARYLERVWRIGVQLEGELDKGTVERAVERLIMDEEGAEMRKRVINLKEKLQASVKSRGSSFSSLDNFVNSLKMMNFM
Chain of UniProt Q96IU4 (whole entry, looked up): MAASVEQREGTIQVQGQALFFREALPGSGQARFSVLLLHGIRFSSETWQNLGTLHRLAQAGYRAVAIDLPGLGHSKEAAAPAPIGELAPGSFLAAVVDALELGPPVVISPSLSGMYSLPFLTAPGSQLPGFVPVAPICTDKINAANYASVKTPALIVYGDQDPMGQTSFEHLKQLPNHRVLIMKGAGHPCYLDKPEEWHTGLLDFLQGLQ
Chain of UniProt P19337 (whole entry, looked up): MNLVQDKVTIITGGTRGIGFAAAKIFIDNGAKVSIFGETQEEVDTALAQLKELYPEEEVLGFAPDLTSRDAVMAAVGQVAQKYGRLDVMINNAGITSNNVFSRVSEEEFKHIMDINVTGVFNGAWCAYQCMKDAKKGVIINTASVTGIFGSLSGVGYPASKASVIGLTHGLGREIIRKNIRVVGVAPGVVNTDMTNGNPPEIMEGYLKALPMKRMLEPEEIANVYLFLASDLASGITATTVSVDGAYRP
Chain of UniProt Q8QZR1 (whole entry, looked up): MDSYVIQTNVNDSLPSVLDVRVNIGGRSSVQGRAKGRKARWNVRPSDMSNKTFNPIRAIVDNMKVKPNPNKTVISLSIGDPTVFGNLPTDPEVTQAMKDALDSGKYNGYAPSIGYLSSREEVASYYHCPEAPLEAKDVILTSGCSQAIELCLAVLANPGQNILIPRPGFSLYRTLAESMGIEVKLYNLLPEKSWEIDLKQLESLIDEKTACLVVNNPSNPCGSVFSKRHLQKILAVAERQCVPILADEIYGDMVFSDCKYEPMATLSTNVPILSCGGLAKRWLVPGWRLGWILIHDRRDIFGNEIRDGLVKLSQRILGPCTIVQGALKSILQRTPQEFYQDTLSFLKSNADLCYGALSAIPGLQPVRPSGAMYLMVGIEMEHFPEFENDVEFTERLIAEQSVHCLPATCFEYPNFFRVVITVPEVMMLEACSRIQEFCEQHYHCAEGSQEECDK

Molecule	substrate	conditions	kcat/Km
alanine aminopeptidase (Neisseria meningitidis, UniProt Q9JYV4)	C[C@H](N)C(=O)Nc1ccc2c(CC(N)=O)cc(=O)oc2c1	pH 7.5, 37 °C	163000 ± 3000 M⁻¹ s⁻¹
B1 (protein)	CC(C)=CCOP(=O)(O)OP(=O)(O)O	with: tri-Tyr peptide acceptor	450 M⁻¹ s⁻¹
enzyme (Streptomyces filamentosus, UniProt A0ABY4UVI6)	CSc1c(O)cc(-c2ccccn2)nc1C(=O)N[C@@H](CC(C)C)C(=O)O	pH 8, 30 °C	111 M⁻¹ s⁻¹
B2 (protein)	O=C(/C=C/c1ccc(O)cc1)c1ccc(O)cc1O		6900 M⁻¹ s⁻¹
B3 (moaA)	Nc1nc2c(ncn2[C@@H]2O[C@H](COP(=O)(O)OP(=O)(O)OP(=O)(O)O)[C@@H](O)[C@H]2O)c(=O)[nH]1	pH 7.6, 25 °C, with: SAM, dithionite, MgCl2 1 mM	533 ± 200 M⁻¹ s⁻¹
B4 (sacB Y196F/Y247F)	OC[C@H]1O[C@@](CO)(O[C@H]2O[C@H](CO)[C@@H](O)[C@H](O)[C@H]2O)[C@@H](O)[C@@H]1O	pH 6.9	18400 M⁻¹ s⁻¹
B5 (enzyme A178R/D177A/M179S/P184R)	NC(=O)C1=CN([C@@H]2O[C@H](COP(=O)(O)OP(=O)(O)OC[C@H]3O[C@@H](n4cnc5c(N)ncnc54)[C@H](O)[C@@H]3O)[C@@H](O)[C@H]2O)C=CC1	pH 7.5, 37 °C, per site	430000 ± 90000 M⁻¹ s⁻¹
DAD V1M (Burkholderia sp.)	O=C(CO)c1ccc(O)cc1	pH 6, 20 °C, with: O2	3.8e+06 ± 200000 M⁻¹ s⁻¹
B6 (TcC)	O=P(O)(O)OC[C@H]1O[C@H](OP(=O)(O)OP(=O)(O)O)[C@H](O)[C@@H]1O	pH 8.3, 37 °C, IMP biosynthesis, apparent, with: Hx 100 µM	620000 ± 40000 M⁻¹ s⁻¹
B7 (FNO G29L)	CCC[n+]1cccc(C(N)=O)c1	pH 8, 25 °C, with: F420H2 40 µM	0.33 ± 0.16 M⁻¹ s⁻¹
B8 (protein)	O[C@H]1CCCc2ccccc21	pH 7.4, phosphate 400 mM, NADPH 250 µM printed, with: NADP+, reverse reaction	35 ± 6 M⁻¹ s⁻¹
B9 (enzyme)	Nc1nc2c(c(=O)[nH]1)N1CN(c3ccc(C(=O)N[C@@H](CCC(=O)O)C(=O)O)cc3)C[C@H]1CN2	pH 7.3, 27 °C	3.2e+06 M⁻¹ s⁻¹
B10 (CODH)	O=C1C=CC(=O)C=C1	pH 7.2, 25 °C, anaerobic, with: CO saturating	6.37e+06 M⁻¹ s⁻¹
Tat (Mus musculus, UniProt Q8QZR1)	N[C@@H](CCC(=O)O)C(=O)O	pH 7, 38 °C, with: PLP	2000 M⁻¹ s⁻¹
BaiA2 (Clostridium scindens, UniProt P19337)	C[C@H](CCC(=O)SCCNC(=O)CCNC(=O)[C@H](O)C(C)(C)COP(=O)(O)OP(=O)(O)OC[C@H]1O[C@@H](n2cnc3c(N)ncnc32)[C@H](O)[C@@H]1OP(=O)(O)O)[C@H]1CC[C@H]2[C@@H]3[C@H](O)C[C@@H]4C[C@H](O)CC[C@]4(C)[C@H]3C[C@H](O)[C@]12C	pH 8.7, 37 °C, with: NAD+	5220 M⁻¹ s⁻¹
enzyme (Arabidopsis thaliana, UniProt Q9LTH3)	O=c1ccn([C@@H]2O[C@H](CO[P@@](=O)(O)O[P@@](=O)(O)O[C@H]3O[C@H](CO)[C@@H](O)[C@H](O)[C@H]3O)[C@@H](O)[C@H]2O)c(=O)[nH]1	pH 7.5, 25 °C	790 M⁻¹ s⁻¹
ABHD14B (Homo sapiens, UniProt Q96IU4)	CC(=O)Oc1ccc([N+](=O)[O-])cc1	pH 8, 37 °C	20.4 ± 2.5 M⁻¹ s⁻¹

Repeated from above:
Molecule	substrate	conditions	kcat/Km
B10 (CODH)	O=C1C=CC(=O)C=C1	pH 7.2, 25 °C, anaerobic, with: CO saturating	6.37e+06 M⁻¹ s⁻¹
Tat (Mus musculus, UniProt Q8QZR1)	N[C@@H](CCC(=O)O)C(=O)O	pH 7, 38 °C, with: PLP	2000 M⁻¹ s⁻¹
